Assay results of several laboratories.
Values joined by “and” are separate records of one study, mostly repeats; a detail may differ. ± gives the spread as reported.
CASP3: Caspase-3 (CASP3, Homo sapiens, UniProt P42574)
GBA2: Beta-glucosidase (GBA2, Homo sapiens, UniProt Q9HCG7)
B4GALT1: Beta-1,4-galactosyltransferase 1 (B4GALT1, Homo sapiens, UniProt P15291)
LYPLAL1: Lysophospholipase-like protein 1 (LYPLAL1, Homo sapiens, UniProt Q5VWZ2)
T1: neomycin riboswitch RNA U14C, pseudouridine at 18; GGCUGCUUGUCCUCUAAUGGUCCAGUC

SMILES	target	test	test system	setting	scale	endpoint	result
COc1ccc2[nH]c(I)c(CCNC(C)=O)c2c1	Melatonin receptor type 1A (MTNR1A, Homo sapiens, UniProt P48039)	GTPγS binding, agonist, radiometric	–	cell membranes	–	Emax	100%
CCC1CC2C(C)=CC3C(=O)CCCC3C=CC(C)=CC2C(=O)O1 (centres unmarked)	Amyloid-beta precursor protein, amyloid-beta fibrils (APP, Homo sapiens, UniProt P05067)	thioflavin T, refers to: Aβ42 pre-formed fibrils	–	5 µM	–	fibril dissociation	0.36%
CCCCCC=CC=C1C(=O)C=CC1CC=CCCCC(=O)O (centres unmarked)	Thymidylate synthase (TYMS, Homo sapiens, UniProt P04818)	competitive isoTOP-ABPP	Ramos soluble proteome	100 µM, added: iodoacetamide probe	baseline: DMSO over compound-treated, higher = stronger cysteine blockade	isoTOP-ABPP competition ratio	2
O=C1C[C@H](c2nc(-c3ccc(F)c4cn[nH]c34)no2)CCCN1c1ccc(F)cc1 (racemic)	Cannabinoid receptor 2 (CNR2, Homo sapiens, UniProt P34972)	agonist, GloSensor cAMP	CHO expressing CB2	100 nM	–	cAMP inhibition	58.3% and 61.1% and 50.9%
N#CN1CC[C@H](C(=O)Nc2nc3c(s2)CN(C(=O)Cn2cc(CNC(=O)CCCC[C@@H]4SC[C@@H]5NC(=O)N[C@@H]54)nn2)CC3)C1	Ubiquitin carboxyl-terminal hydrolase 9X (USP9X, Homo sapiens, UniProt Q93008)	probe binding, affinity probe, neutravidin pull-down LC-MS/MS	HEK293T, cell lysate	5 µM, 1 h, single replicate, unit not given	higher = more pulled down	iBAQ abundance	2.54e+06 and 2.15e+06 and 1.42e+06
N=C(N)c1ccc(-c2ccc(-c3cccc(C(=N)N)c3)o2)nc1	Protein arginine N-methyltransferase 5 (PRMT5, Homo sapiens, UniProt O14744)	enzyme activity, inhibitor, radiometric	–	20 µM	–	remaining activity	108%
CC(=O)N[C@@H](CC(C)C)C(=O)N[C@H](C(=O)N[C@@H](C)C(=O)N[C@@H](CC(=O)O)C(=O)COC(=O)c1c(C)cccc1C)C(C)(C)C	CASP3	enzyme activity, inhibitor	–	–	–	kinact/KI	24500 M⁻¹ s⁻¹
OC[C@@H]1[C@@H](O)[C@H](O)[C@@H](O)CN1CCCCCOCc1ccc(-c2ccc(Cl)cc2)cc1	GBA2	inhibitor, 4MU-β-D-glucopyranoside	HEK293T homogenates overexpressing GBA2	–	baseline: GBA1 IC50 over GBA2 IC50	selectivity ratio	250
Cc1ccc(C(=O)Nc2ccc(CN3CCN(C)CC3)c(C(F)(F)F)c2)cc1C#Cc1cnc2cccnn12	Serine/threonine-protein kinase 38 (STK38, Homo sapiens, UniProt Q15208)	target engagement, NanoBRET	human cells	–	–	Hill slope	0.762
CC(=O)NC(Cc1ccccc1Cl)C(=O)N1CCCC1C(=O)N1CCCC1C(=O)N1CCC2C=CC3C(C)CC(C(=O)O)N3C(=O)C21 (centres unmarked)	Vasodilator-stimulated phosphoprotein, EVH1 domain (VASP, Homo sapiens, UniProt P50552)	fluorescence titration	–	25 °C	–	binding free energy	-8.77 kcal/mol
CC(C)[C@@H]1NC(=O)[C@H](Cc2ccccc2)NC(=O)CSC[C@@H](C(N)=O)NC(=O)[C@H](CCC(=O)O)NC(=O)[C@H](CO)NC(=O)[C@H](Cc2c[nH]c3cccc(Cl)c23)NC(=O)[C@H](C2CCCCC2)NC(=O)[C@H](C(C)C)NC(=O)[C@H](Cc2ccc(O)cc2)NC(=O)[C@H](CC(=O)O)NC(=O)[C@H](Cc2c[nH]c3ccccc23)NC(=O)[C@H](Cc2ccc(N)nc2)NC(=O)[C@H](Cc2c[nH]c3ccc(Cl)cc23)NC(=O)[C@H](CCC(=O)O)NC1=O	Interleukin-1 receptor-like 2 (IL1RL2, Homo sapiens, UniProt Q9HB29)	reporter gene (SEAP), inhibitor, HEK-Blue IL-36R reporter	HEK-Blue IL-36R cells	0.41 µM, 6 h, added: IL-36β 0.3 ng/mL	–	remaining activity	46%
Cc1cnc2nc1Nc1cccc(c1)COC/C=C/COCc1cc(ccc1OCCN1CCOCC1)N2	Epidermal growth factor receptor (EGFR, Homo sapiens, UniProt P00533, del747-750/T751S)	binding	–	0.1 µM	–	remaining binding	94%
OC[C@@H]1[C@@H](O)[C@H](O)[C@@H](O)CN1CCCCCOCc1ccc(-c2ccc(F)cc2)cc1	GBA2	inhibitor, 4MU-β-D-glucopyranoside	HEK293T homogenates overexpressing GBA2	–	baseline: GBA1 IC50 over GBA2 IC50	selectivity ratio	400
NC[C@H]1O[C@H](O[C@H]2[C@H](O[C@@H]3O[C@H](CO)[C@@H](O)[C@H]3O)[C@@H](O)[C@H](N)C[C@@H]2N)[C@H](N)[C@@H](O)[C@@H]1O	T1, neomycin riboswitch RNA U14C, pseudouridine at 18	ITC	–	pH 6.8, 37 °C, read off a plot	–	Kd	1.06 µM
C=CCn1c(N2CCN(CCc3ccccc3)CC2)nc2c1c(=O)[nH]c(=O)n2C	B4GALT1	enzyme activity, inhibitor, UDP-Glo	–	10 µM	lower means stronger inhibition	luminescence	55700 a.u.
CC(=O)N[C@@H](CC(=O)O)C(=O)N[C@@H](Cc1ccc(I)cc1)C(=O)N[C@@H](C)C(=O)N[C@@H](CC(=O)O)C(=O)COC(=O)c1c(C)cccc1C	CASP3	enzyme activity, inhibitor	–	–	–	kinact/KI	1.44e+06 M⁻¹ s⁻¹

SMILES	target	test	test system	setting	scale	endpoint	result
Cc1ccc(-c2ccc(COCCCCCN3C[C@H](O)[C@@H](O)[C@H](O)[C@H]3CO)cc2)cc1	GBA2	inhibitor, 4MU-β-D-glucopyranoside	HEK293T homogenates overexpressing GBA2	–	baseline: GCS IC50 over GBA2 IC50	selectivity ratio	33
O=C1c2sc(-c3ccc(N4CCC(F)C4)nc3F)nc2CCN1c1cccnc1 (centres unmarked)	TAR DNA-binding protein 43, aggregated (TARDBP, Homo sapiens, UniProt Q13148)	radioligand binding	human, FTLD-TDP type B sarkosyl-insoluble extract	9.68 nM	–	specific binding	0.722 nM and 0.542 nM
CC(C)Oc1cc(Cl)ccc1CNc1cc(-c2ccccc2)nc2ncnn12	G-protein coupled receptor 3 (GPR3, Homo sapiens, UniProt P46089)	cAMP reporter	human cells	10 µM	higher is more cAMP	cAMP luminescence	2450 a.u. and 3190 a.u. and 3160 a.u. and 4700 a.u. and 5080 a.u.
Nc1nc(SCc2ccc(Cl)cc2)nn1S(=O)(=O)c1ccc(-c2ccccn2)s1	LYPLAL1	enzyme activity, activator, gel-based ABPP	purified protein	concentration not given, added: FP-rhodamine	baseline: DMSO	probe labeling increase	1.5 fold
OC[C@H]1[C@@H](O)[C@H](O)[C@@H](O)CN1CCCCCOCc1ccccc1	GBA2	inhibitor, 4MU-β-D-glucopyranoside	HEK293T homogenates overexpressing GBA2	–	baseline: GCS IC50 over GBA2 IC50	selectivity ratio	67
O=C(Nc1cc(F)c(F)c(F)c1)c1ccc(F)c(S(=O)(=O)N2CCC(O)CC2)c1	Capsid protein (C, Hepatitis B virus genotype D subtype ayw, UniProt P03146)	surface plasmon resonance	–	25 °C	–	kon	247 M⁻¹ s⁻¹
Cc1ccc(C[C@H](NC(=O)CN2CCCc3cc4cc(C(=O)NCCNC(=O)CCCC[C@@H]5SC[C@@H]6NC(=O)N[C@@H]65)c(=O)oc4cc32)C(=O)NC/C=C/S(=O)(=O)c2ccccc2)cc1	Cathepsin B (CTSB, Homo sapiens, UniProt P07858)	inhibitor	–	added: Z-Arg-Arg-pNA	–	kinact/Ki	279 M⁻¹ s⁻¹
O=C(O)/C=C\C(=O)c1ccc(O)cc1	B4GALT1	enzyme activity, inhibitor, UDP-Glo	–	100 µM	lower means stronger inhibition	luminescence	15400 a.u.
O=C(Nc1ccc(C(=O)Nc2ccc3c(O)cc(S(=O)(=O)O)cc3c2)cc1)c1ccccc1	Three-prime repair exonuclease 1 (TREX1, Homo sapiens, UniProt Q9NSU2)	ssDNA binding, inhibitor, fluorescence anisotropy	–	added: 5 nM FAM-labelled ssDNA, 20 nM enzyme	–	Hill slope	2.12 ± 0.176
OC[C@H]1N[C@H](CCCCOCC23CC4CC(CC(C4)C2)C3)[C@H](O)[C@@H](O)[C@@H]1O	GBA2	inhibitor, 4MU-β-D-glucopyranoside	HEK293T homogenates overexpressing GBA2	–	baseline: GBA1 IC50 over GBA2 IC50	selectivity ratio	5
Cc1cc(NC(=O)C(C(F)(F)F)C(F)(F)F)ccn1	Chymotrypsinogen A (Bos taurus, UniProt P00766)	enzyme activity, inhibitor	–	–	–	IC50	inactive
CC[C@H](C)[C@H](NC(=O)[C@@H](N)CCCCN)C(=O)N1CCC[C@H]1C(=O)N[C@@H](Cc1ccc(O)cc1)C(=O)N[C@@H](Cc1ccccc1)C(=O)N[C@@H](Cc1c[nH]cn1)C(=O)N[C@@H](C)C(=O)NCC(=O)NCC(=O)N[C@@H](CO)C(=O)N[C@@H](CCCCN)C(=O)N[C@@H](CS)C(=O)N[C@@H](CO)C(=O)N[C@H](C(=O)N[C@@H](Cc1c[nH]c2ccccc12)C(=O)N1CCC[C@H]1C(=O)N[C@@H](CC(C)C)C(=O)N1CCC[C@H]1C(=O)N[C@@H](CCC(N)=O)C(=O)N1CCC[C@H]1C(=O)N[C@@H](CO)C(=O)O)[C@@H](C)OP(=O)(O)O	14-3-3 protein zeta/delta (YWHAZ, Homo sapiens, UniProt P63104)	binding, ITC	–	37 °C, long injection delay, added: phosphorylated PRLR peptide	–	stoichiometry	1.09 and 0.943 and 0.94
CC(C)=CCC/C(C)=C/CC/C(C)=C/COCCCCCN1C[C@H](O)[C@@H](O)[C@H](O)[C@H]1CO	GBA2	inhibitor, 4MU-β-D-glucopyranoside	HEK293T homogenates overexpressing GBA2	–	baseline: GCS IC50 over GBA2 IC50	selectivity ratio	125
Cc1ccc(CN)cc1	Amine oxidase [flavin-containing] A (Maoa, Rattus norvegicus, UniProt P21396)	substrate	–	pH 7.5, 25 °C, α,α-protio substrate	–	kcat	0.2667 ± 0.00167 s⁻¹
Nc1nc(SCc2ccc(Cl)cc2)nn1S(=O)(=O)c1ccc2ncsc2c1	LYPLAL1	enzyme activity, activator, gel-based ABPP	purified protein	concentration not given, added: FP-rhodamine	baseline: DMSO	probe labeling increase	2.8 fold
OC[C@H]1[C@@H](O)[C@H](O)[C@@H](O)CN1CCCCCOCc1ccc2ccccc2c1	GBA2	inhibitor, 4MU-β-D-glucopyranoside	HEK293T homogenates overexpressing GBA2	–	baseline: GCS IC50 over GBA2 IC50	selectivity ratio	3

A few entries again:
SMILES	target	test	test system	setting	scale	endpoint	result
O=C(O)/C=C\C(=O)c1ccc(O)cc1	B4GALT1	enzyme activity, inhibitor, UDP-Glo	–	100 µM	lower means stronger inhibition	luminescence	15400 a.u.
CC(=O)NC(Cc1ccccc1Cl)C(=O)N1CCCC1C(=O)N1CCCC1C(=O)N1CCC2C=CC3C(C)CC(C(=O)O)N3C(=O)C21 (centres unmarked)	Vasodilator-stimulated phosphoprotein, EVH1 domain (VASP, Homo sapiens, UniProt P50552)	fluorescence titration	–	25 °C	–	binding free energy	-8.77 kcal/mol
CC(C)Oc1cc(Cl)ccc1CNc1cc(-c2ccccc2)nc2ncnn12	G-protein coupled receptor 3 (GPR3, Homo sapiens, UniProt P46089)	cAMP reporter	human cells	10 µM	higher is more cAMP	cAMP luminescence	2450 a.u. and 3190 a.u. and 3160 a.u. and 4700 a.u. and 5080 a.u.
